# Measurements of several laboratories.
# A part holds a random share of what one study measured.

# Sample 1
# Target: Replicase polyprotein 1ab, main protease (rep, Severe acute respiratory syndrome coronavirus 2, UniProt P0DTD1)
# Observed: enzyme activity
# Mode: inhibitor
# Tested at: 20 µM
# Setting: primary screen
SMILES,inhibition [%]
C[Se]CCC(N)C(=O)O (stereo not drawn),46.1
CCCCCCCCCCCCCCCCCC[S+](CCC)c1ccccc1C(=O)OCC (stereo not drawn),96.8
CC[C@H](CO)Nc1nc(NCc2ccc(-c3ccccn3)cc2)c2ncn(C(C)C)c2n1,99.5
CC1=C(/C=C/C(=C/C=C/C(C)=C/C(=O)O)c2ccc(C)cc2)C(C)(C)CCC1,38

# Sample 2
# Target: Ras GTPase-activating protein-binding protein 1, RRM domain (G3BP1, Homo sapiens, UniProt Q13283)
# Chain of UniProt Q13283 (whole entry, looked up): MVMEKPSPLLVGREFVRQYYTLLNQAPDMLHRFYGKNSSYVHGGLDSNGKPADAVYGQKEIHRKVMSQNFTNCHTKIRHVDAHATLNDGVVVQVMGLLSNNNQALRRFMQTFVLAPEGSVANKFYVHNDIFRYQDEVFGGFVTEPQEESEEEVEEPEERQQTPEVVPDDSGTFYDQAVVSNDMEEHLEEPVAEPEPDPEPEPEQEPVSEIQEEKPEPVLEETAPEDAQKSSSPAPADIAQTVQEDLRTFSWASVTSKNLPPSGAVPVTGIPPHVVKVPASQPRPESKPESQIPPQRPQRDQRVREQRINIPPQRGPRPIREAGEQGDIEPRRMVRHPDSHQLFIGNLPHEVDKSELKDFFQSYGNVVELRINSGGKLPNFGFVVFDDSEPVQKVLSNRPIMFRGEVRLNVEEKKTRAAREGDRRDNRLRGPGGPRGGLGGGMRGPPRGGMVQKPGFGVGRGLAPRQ
# Method: RNA Bind-n-Seq
# Molecule type: RNA
# Matrix: in vitro
# Tested at: 1 µM
# Setting: whole 134-nt RNA, ends assumed
# Together with: 150 mM KCl
# Reference: input library
# Reading: higher = stronger binding
Sequence,log2 enrichment
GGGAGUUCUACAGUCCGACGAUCUAACUUUAGAGGAGGAUCUGAUGGUUAUGGCAGUGGACGUGGAUUUGGGGAUGGCUAUAAUGGGUAUGGAGGAGGACCUGGAGGUGGCAAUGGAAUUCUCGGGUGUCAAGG,-0.81
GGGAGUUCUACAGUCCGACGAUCUGGCCCCGGUGGCAUGCGGGGAGGAAGAGGUGGCCUCAUGGAUCGUGGUGGUCCCGGUGGAAUGUUCAGAGGUGGCCGUGGUGGAGACAGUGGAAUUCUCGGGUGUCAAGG,0.83
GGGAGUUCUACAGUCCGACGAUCUCAAGUCCUGUGCUACACAUCGUAUGUACCGAAUCGGGAAGGAAGGGGAAGGGGAAAGUAUUAUGUUACGCCGUUCGGAUCUGCACUUCCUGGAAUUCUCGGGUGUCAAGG,0.626
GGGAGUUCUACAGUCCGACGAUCUAUCAGGAGGGCAGACUUCAAAAGCUACUAAAAAUGAACGGCCCUGAAGAUCUUCCCAAGUCCUAUGACUAUGACCUUAUCAUCAUUGGAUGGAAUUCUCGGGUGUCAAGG,-0.219
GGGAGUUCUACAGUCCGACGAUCGUCCUGUGCUACACAUCGUAUGUACCGAAUCGGGGAAAAAGGGAAAAAGGAAAAAGGGAAAGUAUUAUGUUACGCCGUUCGGAUCUGCACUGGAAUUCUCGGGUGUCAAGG,-0.02

# Sample 3
# Target: Replicase polyprotein 1ab, polymerase (rep, Severe acute respiratory syndrome coronavirus 2, UniProt P0DTD1)
# Observed: enzyme activity
# Mode: inhibitor
# Tested at: 20 µM
SMILES,inhibition [%]
Oc1cc(CNC(=S)/C=C/c2cc(O)c(O)c(Br)c2)cc(O)c1O,81.9
CC(C)n1nc(-c2ccc3oc(N)nc3c2)c2c(N)ncnc21,-5.07
CC(=O)c1c(C)c2cnc(Nc3ccc(N4CCNCC4)cn3)nc2n(C2CCCC2)c1=O,2.66
O=c1cc(-c2ccccc2)oc2cc(O)c(O)c(O)c12,71.7
CC(C)=CCC[C@](C)(O)[C@H]1CC[C@]2(C)[C@@H]1[C@H](O)C[C@@H]1[C@@]3(C)CC[C@H](O)C(C)(C)[C@@H]3[C@@H](O)C[C@]12C,-1.57
CN(C)CCC(c1ccccc1)c1ccccn1 (stereo not drawn),17.8
CC(=O)Oc1ccccc1C(=O)O,4.49
Cc1cccn2c(=O)c(-c3nnn[nH]3)cnc12,-5.21
COc1ccccc1CN[C@H]1CCCN[C@H]1c1ccccc1,2.48
CNC(=C[N+](=O)[O-])NCCSCc1ccc(CN(C)C)o1,44
C#C[C@]1(O)CC[C@H]2[C@@H]3CCC4=CC(=O)CC[C@@H]4[C@H]3C(=C)C[C@@]21CC,-2.14
CC(=O)OCC(CCn1cnc2cnc(N)nc21)COC(C)=O,-4.58
N#CCNC(=O)c1ccc(-c2ccnc(Nc3ccc(N4CCOCC4)cc3)n2)cc1,3.54
CCN(CC)CC1CCN(c2ncc3ncnc(Nc4ccc(F)c(Cl)c4)c3n2)CC1,0.56
Nc1ccc(S(=O)(=O)Nc2ccc(Cl)nn2)cc1,27.7
CC(=O)N(CC(O)CO)c1c(I)c(C(=O)NCCO)c(I)c(C(=O)NCC(O)CO)c1I (stereo not drawn),-1.52
Cc1cc(CN2CCN(c3c(Br)cnc4nc(-c5ccc(N6CCN(C)CC6)cc5)[nH]c34)CC2)no1,-1.83
O=[N+]([O-])c1ccc(Cl)c([N+](=O)[O-])c1,4.5
CN1CCC[C@@H]1Cc1c[nH]c2ccc(CCS(=O)(=O)c3ccccc3)cc12,3.84
C1CCC2(CC1)CCNCC2,0.05
O=C(c1ccccn1)c1cnn2c(-c3ccncc3)ccnc12,-10.5
O=C(O)C1=CCNCC1,-1.66
COc1ccc(-c2ccc(=N)n(CCCC(=O)O)n2)cc1,1.62
O=[N+]([O-])c1ccc2nc(COCc3nc4ccc([N+](=O)[O-])cc4[nH]3)[nH]c2c1,-4.84
C[C@H]1C[C@H]2[C@@H]3CCC4=CC(=O)C=C[C@]4(C)[C@H]3C(=O)C[C@]2(C)[C@@]1(O)C(=O)CO,-3.86

# Sample 4
# Cell line: HEK-293T/ACE2
# Tested at: 10 µM
# Time: 16 h
# Reference: vehicle
SMILES,viability [%]
CC(C)[C@H]1CC[C@H](C(=O)N[C@H](Cc2ccccc2)C(=O)O)CC1,96.9
C[C@H](CS)C(=O)N1CCC[C@H]1C(=O)O,99.1
COc1cc([C@@H]2c3cc4c(cc3[C@@H](O[C@@H]3O[C@@H]5CO[C@@H](c6cccs6)O[C@H]5[C@H](O)[C@H]3O)[C@H]3COC(=O)[C@H]23)OCO4)cc(OC)c1O,67.5
Cc1ccc(C)c(OCCCC(C)(C)C(=O)O)c1,103

# Sample 5
# Target: Sal-like protein 4, full length isoform B (SALL4, Homo sapiens, UniProt Q9UJQ4-2, residues 1-616)
# Method: universal PBM
# Molecule type: double-stranded DNA, one strand shown
# Matrix: in vitro
# Tested at: not given
# Setting: 8-mer, flanks averaged, mean of replicates
# Reading: higher = stronger binding
Sequence,E-score
GCATGGAC,-0.226
GTTGCCCA,-0.0865
ATAATAGG,0.342
ACAGCTTA,0.103
AGTTGCTG,-0.172
CTACAAGC,-0.114
ATCGAAGC,-0.0834
CAGAGCCC,-0.218

# Sample 6
# Target: Histone acetyltransferase KAT6A, both winged helices, GST fusion (KAT6A, Homo sapiens, UniProt Q92794, residues 1-181)
# Method: protein binding microarray
# Molecule type: double-stranded DNA, one strand shown
# Matrix: in vitro
# Tested at: not given
# Setting: 8-mer, flanks averaged, mean of 2 arrays, mostly near background
# Reference: not given
# Reading: higher = stronger binding
# Construct (chain): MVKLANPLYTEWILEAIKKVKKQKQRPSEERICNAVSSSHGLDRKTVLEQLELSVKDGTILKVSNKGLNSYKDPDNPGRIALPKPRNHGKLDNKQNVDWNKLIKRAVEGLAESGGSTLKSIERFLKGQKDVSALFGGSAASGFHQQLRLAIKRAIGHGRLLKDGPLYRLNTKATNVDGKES
Sequence,E-score
AATGTAAA,0.0307
AAGTACAC,-0.119
ATGACACG,0.0374
TATCATAA,-0.0606
ACTCTATA,0.0997
GTTTGCGA,0.0945
AATCTGGG,-0.182
ATAGTGTC,0.000445

# Excerpt of the above (sample 6):
Sequence,E-score
AATGTAAA,0.0307
AAGTACAC,-0.119
ATGACACG,0.0374
TATCATAA,-0.0606
ACTCTATA,0.0997
GTTTGCGA,0.0945
AATCTGGG,-0.182
ATAGTGTC,0.000445
